Measured values pooled from the literature.
Compare with care: the assays were run in different laboratories. Numbers after ± are the reported error.

O=S(=O)(O)CCCCCCCCCCCSC[C@H]1O[C@@H]2O[C@H]3[C@H](O)[C@@H](O)[C@@H](O[C@H]4[C@H](O)[C@@H](O)[C@@H](O[C@H]5[C@H](O)[C@@H](O)[C@@H](O[C@H]6[C@H](O)[C@@H](O)[C@@H](O[C@H]7[C@H](O)[C@@H](O)[C@@H](O[C@H]8[C@H](O)[C@@H](O)[C@@H](O[C@H]1[C@H](O)[C@H]2O)O[C@@H]8CSCCCCCCCCCCCS(=O)(=O)O)O[C@@H]7CSCCCCCCCCCCCS(=O)(=O)O)O[C@@H]6CSCCCCCCCCCCCS(=O)(=O)O)O[C@@H]5CSCCCCCCCCCCCS(=O)(=O)O)O[C@@H]4CSCCCCCCCCCCCS(=O)(=O)O)O[C@@H]3CSCCCCCCCCCCCS(=O)(=O)O — CC50 (African green monkey cells; MTS; 24 (unit not given)): > 300 µg/mL
CCc1c(CC2CCCCC2)nc(SCC(=O)c2ccccc2)[nH]c1=O — CC50 (C8166; MTT; 3 days): > 200 µM
O=c1ccn([C@@H]2O[C@H](CO)[C@@H](O)[C@H]2F)c(=O)[nH]1 — CC50 (COLO 205; sulforhodamine B; 11 days, glucose medium): > 250 µM
O=C1c2ccc(O)c(O)c2C(=O)N1Cc1ccc(F)c(Cl)c1 — CC50 (HOS; ATPlite; 48 h): 5.4 ± 1.3 µM
CCOC(=O)C1NC(c2ccc[n+](C)c2)C23c4c5c6c7c8c9c(c%10c%11c2c2c4c4c%12c5c5c6c6c8c8c%13c9c9c%10c%10c%11c%11c2c2c4c4c%12c%12c5c5c6c8c6c8c%13c9c9c%10c%10c%11c2c2c4c4c%12c5c6c5c8c9c%10c2c45)C713 (stereo not shown) — CC50 (Ramos; cell growth or viability; 24 h): 36.9 µM
Nc1ncnc2c1ncn2[C@@H]1O[C@H](CO)[C@@H](O)[C@H]1F — CC50 (COLO 205; sulforhodamine B; 11 days, glucose medium): 121 µM
COC(=O)C1(C)CCC2(C)CCC3(C)C(=CC(=O)C4C5(C)CCC(OC6OC(C(=O)NN)C(O)C(O)C6OC6OC(C(=O)NN)C(O)C(O)C6O)C(C)(C)C5CCC43C)C2C1 (stereo not shown) — CC50 (Raji; cell growth or viability, MTT; 72 h): > 8000 µM
CCOC(=O)CNC(=O)CN1C(=O)S/C(=C\c2ccc(OC)c(O)c2)C1=O — CC50 (PMA-differentiated THP-1, Leishmania-infected; resazurin; 72 h): > 100 µM
CCN(CC)CCCC(C)Nc1cc[n+]([Ru-]([OH2+])[OH2+])c2cc(Cl)ccc12.Cc1ccc(C(C)C)cc1.F[B-](F)(F)F.F[B-](F)(F)F (stereo not shown) — CC50 (SUP-T1; cytotoxicity): 54 µM
CCN(Cc1cccc(S(=O)(=O)O)c1)c1ccc(C(=C2C=CC(=[N+](CC)Cc3cccc(S(=O)(=O)[O-])c3)C=C2)c2ccccc2)cc1 — CC50 (CEMx174 5.25M7; 3 days): 259 ± 44.2 µM
OC[C@H]1[C@@H](O)[C@@H](O)CN1CCc1ccccc1 — CC50 (MRC-5; MTS; 72 h): > 200 µM
CC(C)CC(NC(=O)C1OC(OC2C(OC3CCC4(C)C(CCC5(C)C4C(=O)C=C4C6CC(C)(C(=O)NC(CC(C)C)C(=O)O)CCC6(C)CCC45C)C3(C)C)OC(C(=O)NC(CC(C)C)C(=O)O)C(O)C2O)C(O)C(O)C1O)C(=O)O (stereo not shown) — CC50 (Raji; cell growth or viability, MTT; 72 h): 5000 µM
CC(C)CC(C)N1CCn2cc(C(=O)NCc3ccc(F)cc3F)c(=O)c(O)c2C1=O (stereo not shown) — CC50 (HOS; cell growth or viability; 48 h): > 250 µM

For quick reference, copied from above:
O=c1ccn([C@@H]2O[C@H](CO)[C@@H](O)[C@H]2F)c(=O)[nH]1 — CC50 (COLO 205; sulforhodamine B; 11 days, glucose medium): > 250 µM
